Experimental data collected from several papers.
Each numbered part is a random draw from the data of one study; scales do not carry over between parts.

Set 1 — technique: RNA Bind-n-Seq; form: RNA; matrix: in vitro; concentration: 200 nM; notes: whole 134-nt RNA, ends assumed; added: 150 mM KCl; relative to: input library; direction: higher = stronger binding
Target: Ras GTPase-activating protein-binding protein 1, full length (G3BP1, Homo sapiens, UniProt Q13283)
Chain of UniProt Q13283 (whole entry, looked up): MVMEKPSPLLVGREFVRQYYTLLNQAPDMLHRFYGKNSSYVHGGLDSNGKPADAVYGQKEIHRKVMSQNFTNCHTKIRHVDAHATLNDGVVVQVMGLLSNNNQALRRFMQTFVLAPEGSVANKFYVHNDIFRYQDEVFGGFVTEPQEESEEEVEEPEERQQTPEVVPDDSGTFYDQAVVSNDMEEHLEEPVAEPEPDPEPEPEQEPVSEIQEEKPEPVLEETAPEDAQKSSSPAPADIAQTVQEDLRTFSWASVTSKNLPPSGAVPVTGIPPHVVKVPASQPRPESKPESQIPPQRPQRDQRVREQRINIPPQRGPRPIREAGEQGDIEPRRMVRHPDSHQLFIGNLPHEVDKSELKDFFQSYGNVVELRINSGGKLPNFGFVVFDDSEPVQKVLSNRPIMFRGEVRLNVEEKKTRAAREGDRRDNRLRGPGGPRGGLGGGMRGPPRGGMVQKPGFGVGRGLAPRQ
| Strand | log2 enrichment |
| --- | --- |
| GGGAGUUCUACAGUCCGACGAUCCAAAGACAACACGCACCCACACAGACACAGAGGGAAGGGGUUGGGAUGGGGACAGGGUGCACAGCAGGGCGGGGUAGGACCCCAGCCCCUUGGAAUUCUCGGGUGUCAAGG | 1.84 |
| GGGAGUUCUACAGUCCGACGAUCCCUGUGCUACACAUCGUAUGUACCGAAUCGGGAAAAAAAGGGAAAAAGGGUUUUUUUGGGAAAGUAUUAUGUUACGCCGUUCGGAUCUGCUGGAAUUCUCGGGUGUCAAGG | -0.837 |
| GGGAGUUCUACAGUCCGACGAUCUCCUGUGCUACACAUCGUAUGUACCGAAUCGGGGAAAAAGGGGAAAGGGGAAAAAGGGGAAAGUAUUAUGUUACGCCGUUCGGAUCUGCAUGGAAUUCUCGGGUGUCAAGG | 0.511 |
| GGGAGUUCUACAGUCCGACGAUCAAGUCCUGUGCUACACAUCGUAUGUACCGAAUCGGGAAAGGGAAAAAGGGUUUGGGAAAGUAUUAUGUUACGCCGUUCGGAUCUGCACUUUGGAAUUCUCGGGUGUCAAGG | 0.109 |
| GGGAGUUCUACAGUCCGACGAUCGUCCUGUGCUACACAUCGUAUGUACCGAAUCGGAAAAAAGGAAAAAAGGAAAAAAGGGAAAGUAUUAUGUUACGCCGUUCGGAUCUGCACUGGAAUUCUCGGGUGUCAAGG | -0.974 |
| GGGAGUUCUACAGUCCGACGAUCUUGCCACUCUAAAUUCAGAAGAGGAGAGCGACCCUCCAACCUACAAGGAUGCCUUCCCUCCACUUCCUGAGAAAGCUGCUUGCCUGGAAAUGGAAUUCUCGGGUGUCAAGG | 0.124 |
| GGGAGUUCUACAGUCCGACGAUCCACAGACAACACGCACCCACACAGACACAGAGGGAAGGGGUUGGGAUGGGGACAGGGUGCACAGCAGGGCGGGGUAGGACCCCAGCCCCCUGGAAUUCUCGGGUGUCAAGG | 1.92 |
| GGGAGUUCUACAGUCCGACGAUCAAGUCCUGUGCUACACAUCGUAUGUACCGAAUCGGAAAAAGGAAAAAGGGAAAAAGGAAAGUAUUAUGUUACGCCGUUCGGAUCUGCACUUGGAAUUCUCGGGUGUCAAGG | -1.09 |
| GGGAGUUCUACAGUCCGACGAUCUGGGAGGUGGAUUUUGUUUAUUUUUUUAGCUCAUUUCCAGGGGUGGGAAUUUUUAUUUAAUAUGUGUCAUGAAUAAAGUUGUUUUUGAAAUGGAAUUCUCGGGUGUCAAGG | 0.315 |

Set 2 — technique: universal PBM; form: double-stranded DNA, one strand shown; matrix: in vitro; concentration: not given; direction: higher = stronger binding
Target: Sal-like protein 4, full length isoform B (SALL4, Homo sapiens, UniProt Q9UJQ4-2, residues 1-616)
Notes: 8-mer, flanks averaged, mean of replicates
Target sequence (chain): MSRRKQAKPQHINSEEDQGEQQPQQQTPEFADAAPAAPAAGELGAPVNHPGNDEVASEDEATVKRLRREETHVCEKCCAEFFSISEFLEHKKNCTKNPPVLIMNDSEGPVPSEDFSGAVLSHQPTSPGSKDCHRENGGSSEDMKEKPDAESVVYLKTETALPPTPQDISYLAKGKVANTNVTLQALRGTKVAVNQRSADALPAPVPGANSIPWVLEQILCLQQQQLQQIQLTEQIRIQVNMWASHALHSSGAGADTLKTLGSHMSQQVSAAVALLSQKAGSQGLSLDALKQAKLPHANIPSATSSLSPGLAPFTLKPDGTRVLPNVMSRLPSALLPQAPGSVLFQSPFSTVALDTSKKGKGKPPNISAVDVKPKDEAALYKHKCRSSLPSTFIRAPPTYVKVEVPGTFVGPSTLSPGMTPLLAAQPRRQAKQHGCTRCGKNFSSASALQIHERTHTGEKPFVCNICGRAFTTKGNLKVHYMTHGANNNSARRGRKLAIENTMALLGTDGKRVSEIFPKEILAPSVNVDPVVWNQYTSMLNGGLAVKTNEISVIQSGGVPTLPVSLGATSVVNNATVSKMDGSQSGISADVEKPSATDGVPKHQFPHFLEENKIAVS
| Strand | E-score |
| --- | --- |
| CATGGTCA | 0.0846 |
| CACCCAGA | -0.112 |
| CTGAAAAA | 0.0267 |
| GCGAATAA | 0.0987 |
| CTAGATAA | 0.167 |
| GTGGACGA | -0.172 |
| AGCGATAG | -0.141 |
| ATGTGAGG | 0.0732 |
| CTTGGCTA | -0.0487 |
| AGCGAGCA | -0.139 |
| CCATAATC | 0.246 |
| GCGGATCA | -0.153 |
| CCTGCGAA | -0.0572 |
| CTATATTC | 0.257 |
| TAATACAA | 0.327 |
| CTCGCCCA | -0.141 |

Set 3 — technique: RNA Bind-n-Seq; form: RNA; matrix: in vitro; concentration: 365 nM; relative to: no-protein control; direction: higher = stronger binding
Target: RNA binding protein fox-1 homolog 2, RRM domain, GST-SBP tag (RBFOX2, Homo sapiens, UniProt O43251-10, residues 100-194)
Notes: natural RNA segment, single round, ends assumed
Residues (chain): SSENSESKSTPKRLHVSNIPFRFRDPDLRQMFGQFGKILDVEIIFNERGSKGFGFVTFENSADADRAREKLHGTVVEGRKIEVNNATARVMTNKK
| Strand | RBNS enrichment (R) |
| --- | --- |
| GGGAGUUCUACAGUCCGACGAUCCACAUGAGGGGCCGCUCUUCUGUCCUGUGGAGCUCCUGCCCUGCCAGCUCUCCAUGCUGAGCUGUGGCCAAGGGGAACAGGUGGGAUGUUGCUGGCCGCCUUCAGAAUCGUGGAAUUCUCGGGUGCCAA | 0.93 |
| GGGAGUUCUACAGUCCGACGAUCCUGUGGCUGAAAAUAAAAUCUUGUCUAGCACAGUUAAAGUCAUUAAAAAUAAAAAUGACAGCUUUAGCACAAUUUUAAGAAAAUGCCCCUCUCUAUUACCACAUUUUCUCUGGAAUUCUCGGGUGCCAA | 1.06 |
| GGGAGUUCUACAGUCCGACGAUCGGCCCCCCAGGUCCACGUCCUUUAAAUUGGCCCUUUGGCUCUUGCCCUUGGCUCCCUUGGGCAGACAGCAGGCUUAGGCCAUUGAUAUCGCAGUUCUUCCUAUCAGCUUCUGGAAUUCUCGGGUGCCAA | 0.241 |
| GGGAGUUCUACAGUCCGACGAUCGCAGCACUGCCAGGCUGUCGUCAGUUUCACCAUGUGGCCUCUGUGCCCCUCCUCCGUAGUCCUCUCCCUCCGUACAUGCUCCACAGAAAGAAGACCUCUGCUGCCACCUCUGGAAUUCUCGGGUGCCAA | 0.695 |
| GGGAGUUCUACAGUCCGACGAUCGAAGAUAAUCACAGACGUUAGUUAGAGUGUAUUUAUUUUUUUAAGUUACAAUAAAGUGCUCAGUCCUAGUCUUUUCUUGUGUUCUAAUGUUAAUUCCAAACUUUCUCUCAUGGAAUUCUCGGGUGCCAA | 0.523 |
| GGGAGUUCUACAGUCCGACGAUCGCCAAAGUACAGCAGGAACCCACCACCUGUUUCCCUUCCUUCUCCCAUUCUACUCCCAGUCCGGAAUGCCACGAGGACCUUAACCUUGUUUCUGGCUUUAGCUGCUAGUUUGGAAUUCUCGGGUGCCAA | 0.65 |
| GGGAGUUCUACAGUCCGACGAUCGUGGGGACGCCUGUUGUUUUGGCUCAAUUUGGGUUUGUUGGUCACAUGGAGCUCUUCCAUUUCGUUUAGCUGAAUAAUGAGUUGUUCCUAGAGGAGACAGCCUGUCUCUCUGGAAUUCUCGGGUGCCAA | 0.331 |
| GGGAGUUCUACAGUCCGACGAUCAAUGCUGAUGGGAACUUGGAAGUUCAGAAACCAAGGGGAAAUGUCCUGAGAUAACAUUUGCAUUGUCGACCUCAGUUGACUGUUUUUACAAUAAAAAUAUUUUGCAGCUUUGGAAUUCUCGGGUGCCAA | 0.497 |

Set 4 — technique: protein-binding microarray; form: double-stranded DNA, one strand shown; matrix: in vitro; concentration: 2200 nM top; notes: 60-bp whole probe; added: salmon DNA 0.4 mg/ml; relative to: random background probes; direction: higher = stronger binding; constant ends, left off below: GCCTAGCAC … GTCTTGATTCGCTTGACGCTGCTG
Target: Interferon regulatory factor 7, full length, phosphomimetic (IRF7, Homo sapiens, UniProt Q92985, residues 1-503, S471D/S472D/S475D/S476D/S477D/S483D/S484D/S487D)
Chain of UniProt Q92985 (whole entry, unmodified, looked up): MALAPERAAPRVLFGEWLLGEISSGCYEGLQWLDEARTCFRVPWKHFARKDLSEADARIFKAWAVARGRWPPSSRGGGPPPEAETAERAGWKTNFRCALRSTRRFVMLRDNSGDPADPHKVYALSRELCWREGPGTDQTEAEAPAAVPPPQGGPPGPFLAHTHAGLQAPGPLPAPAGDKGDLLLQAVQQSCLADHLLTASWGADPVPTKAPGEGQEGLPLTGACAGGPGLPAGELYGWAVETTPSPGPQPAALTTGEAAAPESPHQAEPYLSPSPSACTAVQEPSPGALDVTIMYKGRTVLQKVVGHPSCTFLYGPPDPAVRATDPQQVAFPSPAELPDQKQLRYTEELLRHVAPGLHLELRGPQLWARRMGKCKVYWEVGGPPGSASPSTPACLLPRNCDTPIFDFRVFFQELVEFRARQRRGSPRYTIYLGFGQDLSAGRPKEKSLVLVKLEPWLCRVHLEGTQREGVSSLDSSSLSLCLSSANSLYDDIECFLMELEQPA
| Strand | fitted relative affinity [z-score] |
| --- | --- |
| TCATTTTTCTGCTTAGAACTGTGCTAG | 2.84 |
| GACGGTATCGACACTAGGGACGTGCTA | -0.169 |
| TCACCTCTTTCACTGGTACTGTGCTAG | 2.25 |
| AACGAACTGAGTATCGAGACGTGCTAG | -0.128 |
| GACGGACTGGACTTGCGGGACGTGCTA | -0.886 |
| TCACTCATACATCTGGGACTGTGCTAG | 0.774 |
| CACGATCTCAGTCTCGAGACGTGCTAG | 0.845 |
| GACGGTTTCGACTATCGGGAGGTGCTA | 3.2 |
| GATGGTTTCCTTATCCTGACGTGCTAG | 2.71 |
| TCGGGTCTCCCTTGAGGTTTGTGCTAG | 1.47 |
| TTAGGTATAGGGTTTCGGTTAGTGCTA | 2.57 |
| TCAGTTTTAAATAGGGCACTGTGCTAG | 0.234 |
| TTAGGTCTCCTTTTCCTTAAGTGCTAG | 1.5 |
| GACGGTATCGACACTGGGAACGTGCTA | -0.22 |
| TTAGGTATCGGTCTTGGTTAGTGCTAG | 0.859 |
| GACGGTATCGGTCTCGGAACGTGCTAG | 0.304 |
| TTTTTTTTATCAATCATTTTGTGCTAG | 0.967 |
| CATTTTTTTTTTCTACTTCTGTGCTAG | 3.32 |
| TTAGGTATCGGGATTCGGTTAGTGCTA | 0.838 |

Set 5 — technique: protein-binding microarray; form: double-stranded DNA, one strand shown; matrix: in vitro; concentration: not given; direction: higher = stronger binding
Target: Max dimerization protein 1, bHLH-zipper, MAX partner unstated (MXD1, Homo sapiens, UniProt Q05195, residues 56-136)
Notes: k-mer, scored over probes, only values ≥0.25
Target sequence (chain): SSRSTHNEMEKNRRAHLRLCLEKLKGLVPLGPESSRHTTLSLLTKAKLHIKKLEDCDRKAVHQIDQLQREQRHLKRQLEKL
| Strand | E-score |
| --- | --- |
| ACCGCCCC | 0.27 |
| GCGTGCCA | 0.312 |
| CCATGCGG | 0.404 |
| AAAACGTG | 0.437 |
| AACGTGAT | 0.389 |
| CGGCCCCC | 0.289 |
| GGGGAGCA | 0.295 |
| GACACGCC | 0.325 |
| ATAATGTG | 0.271 |
| GAACACGC | 0.388 |
| AACCACGT | 0.453 |
| AGCAATGC | 0.255 |
| CATGTCCC | 0.314 |
| AATGTGCT | 0.266 |
| CATGTCTC | 0.364 |
| ACCCACCA | 0.295 |
| CGTGTAAC | 0.27 |
| CTCGTGAA | 0.268 |
| CCCCGTGC | 0.377 |
| AACTCATG | 0.353 |

Repeated from above (set 3):
| Strand | RBNS enrichment (R) |
| --- | --- |
| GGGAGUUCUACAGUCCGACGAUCGAAGAUAAUCACAGACGUUAGUUAGAGUGUAUUUAUUUUUUUAAGUUACAAUAAAGUGCUCAGUCCUAGUCUUUUCUUGUGUUCUAAUGUUAAUUCCAAACUUUCUCUCAUGGAAUUCUCGGGUGCCAA | 0.523 |
| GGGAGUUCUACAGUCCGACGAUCAAUGCUGAUGGGAACUUGGAAGUUCAGAAACCAAGGGGAAAUGUCCUGAGAUAACAUUUGCAUUGUCGACCUCAGUUGACUGUUUUUACAAUAAAAAUAUUUUGCAGCUUUGGAAUUCUCGGGUGCCAA | 0.497 |
| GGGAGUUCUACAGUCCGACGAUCGCCAAAGUACAGCAGGAACCCACCACCUGUUUCCCUUCCUUCUCCCAUUCUACUCCCAGUCCGGAAUGCCACGAGGACCUUAACCUUGUUUCUGGCUUUAGCUGCUAGUUUGGAAUUCUCGGGUGCCAA | 0.65 |
| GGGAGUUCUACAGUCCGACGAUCGCAGCACUGCCAGGCUGUCGUCAGUUUCACCAUGUGGCCUCUGUGCCCCUCCUCCGUAGUCCUCUCCCUCCGUACAUGCUCCACAGAAAGAAGACCUCUGCUGCCACCUCUGGAAUUCUCGGGUGCCAA | 0.695 |
| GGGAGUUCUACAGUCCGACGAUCGGCCCCCCAGGUCCACGUCCUUUAAAUUGGCCCUUUGGCUCUUGCCCUUGGCUCCCUUGGGCAGACAGCAGGCUUAGGCCAUUGAUAUCGCAGUUCUUCCUAUCAGCUUCUGGAAUUCUCGGGUGCCAA | 0.241 |
| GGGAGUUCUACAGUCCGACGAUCGUGGGGACGCCUGUUGUUUUGGCUCAAUUUGGGUUUGUUGGUCACAUGGAGCUCUUCCAUUUCGUUUAGCUGAAUAAUGAGUUGUUCCUAGAGGAGACAGCCUGUCUCUCUGGAAUUCUCGGGUGCCAA | 0.331 |
| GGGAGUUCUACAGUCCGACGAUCCACAUGAGGGGCCGCUCUUCUGUCCUGUGGAGCUCCUGCCCUGCCAGCUCUCCAUGCUGAGCUGUGGCCAAGGGGAACAGGUGGGAUGUUGCUGGCCGCCUUCAGAAUCGUGGAAUUCUCGGGUGCCAA | 0.93 |
